Measured values from different studies.
Compare with care: the assays were run in different laboratories. Numbers after ± are the reported error.

| Structure (SMILES) | assay | system | conditions | measurement | result |
| --- | --- | --- | --- | --- | --- |
| C[C@H](NC(=O)[C@H](Cc1cnc[nH]1)NC(=O)[C@H](CO)NC(=O)[C@@H](N)CC(=O)O)C(=O)N[C@@H](CCCCN)C(=O)N[C@@H](CCCNC(=N)N)C(=O)N[C@@H](Cc1cnc[nH]1)C(=O)N[C@@H](Cc1cnc[nH]1)C(=O)NCC(=O)N[C@@H](Cc1ccc(O)cc1)C(=O)N[C@@H](CCCCN)C(=O)N[C@@H](CCCNC(=N)N)C(=O)N[C@@H](CCCCN)C(=O)N[C@@H](Cc1ccccc1)C(=O)N[C@@H](Cc1cnc[nH]1)C(=O)N[C@@H](CCC(=O)O)C(=O)N[C@@H](CCCCN)C(=O)N[C@@H](Cc1cnc[nH]1)C(=O)N[C@@H](Cc1cnc[nH]1)C(=O)N[C@@H](CO)C(=O)N[C@@H](Cc1cnc[nH]1)C(=O)N[C@@H](CCCNC(=N)N)C(=O)NCC(=O)N[C@@H](Cc1ccc(O)cc1)C(=O)O | PAGE band density | whole saliva supernatant G1, diluted 1:10 | 100 µg/mL, 6 h, 37 °C | degradation | 58.2% |
| COc1c2c(cc3oc(C)cc(=O)c13)OC(C(C)(C)O)C2 (stereo not drawn) |  | rat liver homogenate 30% | 15 min, 37 °C | degradation | ≤ 44.9% |
| CCCCCCCCCCCCCCOc1c(O)cc(C(=O)O[C@@H]2Cc3c(O)cc(O)cc3O[C@@H]2c2cc(O)c(O)c(O)c2)cc1O | UV-Vis | PBS | 0.02 mg/mL, 5 h, pH 7.4 | degradation | 20.5 ± 0.93% |
| CCCC[C@H](NC(=O)[C@H](CC(=O)O)NC(=O)[C@H](CC(=O)O)NC(=O)[C@H](CCC(=O)O)NC(=O)[C@H](Cc1ccc(O)cc1)NC(=O)[C@H](CC(=O)O)NC(=O)[C@H](CC(=O)O)NC(=O)[C@H](CCC(=O)O)NC(=O)[C@H](CC(C)C)NC(=O)[C@H](CCC(=O)O)NC(=O)[C@H](CCC(=O)O)NC(=O)c1ccc2c(c1)C1(OC2=O)c2ccc(O)cc2Oc2cc(O)ccc21)C(=O)N[C@@H](CCC(=O)O)C(=O)N[C@@H](CCC(=O)O)C(N)=O |  | A-431 cell lysate | 3 h, formation of 8-residue fragment | degradation rate | 100 ± 8.2 fmol/min/mg |
| CCOC(=O)CCC(=O)Oc1ccc(/C=C/C(=O)/C=C(O)/C=C/c2ccc(OC(=O)CCC(=O)OCC)c(OC)c2)cc1OC |  | human plasma | 1.5 µM, 37 °C | degradation rate constant | 0.147 ± 0.027 min⁻¹ |
| CCCC(CCC)C(=O)[O][Pt]([NH2])([NH2])([Cl])([Cl])[O]C(=O)c1ccccc1OC(C)=O | HPLC | phosphate buffer | 1 day, pH 7, 37 °C | degradation | ~20% |
| CC[C@H](C)[C@@H]1NC(=O)[C@H](CCCNC(=N)N)NC(=O)[C@H](CC(=O)O)NC(=O)[C@H](CC(C)C)NC(=O)[C@H](CCCCN)NC(=O)[C@H](CC(C)C)NC(=O)CNC(=O)[C@H](Cc2ccccc2)NC(=O)[C@@H](NC(=O)CNC(=O)[C@H](CCCCN)NC(=O)[C@H](CO)NC(=O)[C@H](CC(C)C)NC(=O)CNC(=O)[C@H](CCCCN)NC(=O)[C@H](CCCCN)NC(=O)[C@H](CC(N)=O)NC(=O)[C@H](C)NC(=O)CNC(=O)[C@H](CCCCN)NC(=O)[C@H](Cc2ccc(O)cc2)NC(=O)[C@H](CCCCN)NC(=O)[C@H](CCCNC(=N)N)NC(=O)[C@H](C)NC(=O)[C@H](CC(N)=O)NC(=O)[C@@H]2CCCN2C(=O)[C@H](Cc2c[nH]cn2)NC(=O)[C@H](CCC(=O)O)NC(=O)[C@H](CCC(N)=O)NC(=O)[C@@H](N)CC(C)C)CSSC[C@@H](C(=O)O)NC(=O)CNC(=O)[C@H](CC(C)C)NC(=O)CNC(=O)[C@H](CO)NC(=O)[C@H](CCSC)NC(=O)[C@H](CO)NC(=O)CNC1=O |  |  | physiological pH and temperature | degradation half-life | ≤ 1 weeks |
| O=C(O[C@@H]1Cc2c(O)cc(O)cc2O[C@@H]1c1cc(O)c(O)c(O)c1)c1cc(O)c(O)c(O)c1 | UV-Vis | PBS | 0.02 mg/mL, 24 h, pH 7.4 | degradation | 50.7 ± 2.27% |
| C#CCN(CCCNC(=O)CCCCC[N+]1=C(/C=C/C2=C(Cl)C(=C/C=C3\N(CCCCCC(=O)[O-])c4ccccc4C3(C)C)/CCC2)C(C)(C)c2ccccc21)CCCOc1ccc(Cl)cc1Cl |  | mouse plasma | high concentration | degradation half-life | 1320 min |

Repeated from above:
| Structure (SMILES) | assay | system | conditions | measurement | result |
| --- | --- | --- | --- | --- | --- |
| C[C@H](NC(=O)[C@H](Cc1cnc[nH]1)NC(=O)[C@H](CO)NC(=O)[C@@H](N)CC(=O)O)C(=O)N[C@@H](CCCCN)C(=O)N[C@@H](CCCNC(=N)N)C(=O)N[C@@H](Cc1cnc[nH]1)C(=O)N[C@@H](Cc1cnc[nH]1)C(=O)NCC(=O)N[C@@H](Cc1ccc(O)cc1)C(=O)N[C@@H](CCCCN)C(=O)N[C@@H](CCCNC(=N)N)C(=O)N[C@@H](CCCCN)C(=O)N[C@@H](Cc1ccccc1)C(=O)N[C@@H](Cc1cnc[nH]1)C(=O)N[C@@H](CCC(=O)O)C(=O)N[C@@H](CCCCN)C(=O)N[C@@H](Cc1cnc[nH]1)C(=O)N[C@@H](Cc1cnc[nH]1)C(=O)N[C@@H](CO)C(=O)N[C@@H](Cc1cnc[nH]1)C(=O)N[C@@H](CCCNC(=N)N)C(=O)NCC(=O)N[C@@H](Cc1ccc(O)cc1)C(=O)O | PAGE band density | whole saliva supernatant G1, diluted 1:10 | 100 µg/mL, 6 h, 37 °C | degradation | 58.2% |
